Published values of several laboratories.
Each numbered part is a random draw from the data of one study; scales do not carry over between parts.

Study 1
Target: RNA binding protein fox-1 homolog 2, RRM domain, GST-SBP tag (RBFOX2, Homo sapiens, UniProt O43251-10, residues 100-194)
Method: RNA Bind-n-Seq
Form: RNA
Sample: in vitro
Concentration: 365 nM
Notes: natural RNA segment, single round, ends assumed
Relative to: no-protein control
Reading: higher = stronger binding
Measurement: RBNS enrichment (R)
Constant ends, left off below: GGGAGUUCUACAGUCCGACGAUC … UGGAAUUCUCGGGUGCCAA
Target sequence (chain): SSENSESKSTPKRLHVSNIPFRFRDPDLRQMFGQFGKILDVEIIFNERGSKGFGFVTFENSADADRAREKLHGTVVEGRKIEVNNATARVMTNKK
GUAGCUGAGGAGGAGGGGAAGCCCCUUCAAAGUGUCGAUGUGGCCUUAUAAGUGUCAUACGUCACCCUACAGCAAACACGUGACAACCAUCCUGGGCUCUCAUCUGAACC: 0.235
UGCUAUUUUCAUUAUACACUAUGAGGUAAAAUGUAAUAACAAAAGAGAGAGAAGUACCACUGUGGCUAGAUAUAUACACACACAUAUAUAUAUGGAUGGAUGUAAUAUAU: 0.374
CAGUAUAUGUUCCAGCUGCAGAGAGCAGACUGCUCUCAGCUUGCCUAGCACCUUAGGGGAGGGAAGAUAAAUGGAUAGGUAAUGGGGUGGAGGAAGGAUGGGGAUUUUGU: 0.787
UGGAGUAUAUUUCCACCUAUGAUGACAUAGCUAGACCUCCUUUUACCAACAAAACUCCAGGUUGAGACUCUCUAGUCUUGCCAGGGCCCACUGAGAGCUCCCAGACUCAG: 0.249
CACAGGACACUUCACUGCCAUUUUCUAUGCACAUGGAAGAAUAAUAAAUGUGGAAAUUUCAUCCUGGAGAAUGUGUUCUUGCAGUUCUUCUGGGUGCGAUCAUGGAAACA: 0.241
UUCCCCACCCUGGGGAGCACAUAAAGAAGCUUGCCAAGGGGGGCGUCCUUGCUCCCCAGUUGUCCUGUUUCUGUAACUUAUGAUGUCUUUUCCCUGAGAUGGGGGCUCAG: 0.327
GGUUGGAAAUUAUACGUUUAUACUUUUAUUAGUUUGCUCCAAGUAUGACUGUGUUCACUUAAGUUUAGAGAAACACUGGGUUUUGCUAAACUCGGUUAACAAAAGCCACU: 1.82
GACUUAUUUUAAUUCCACUUUAACAUUUUACUGUGCUGUUAACUUGGAAGACCUGUUUGAAAUUAGUCUUGAUUUCACACUCAUUUAAUCUGCUGAGCACAGGGCUGUUG: 0.51

Study 2
Target: Sox-I, HMG box (Salpingoeca helianthica)
Method: Spec-seq
Form: double-stranded DNA, one strand shown
Sample: in vitro
Concentration: not given
Notes: whole probe, mean of replicates
Relative to: not given
Reading: lower = stronger binding
Measurement: relative binding energy
Constant ends, left off below: GAGTCGTCTCGTCAGCAC … CCGTAGAGCACTCAGGTC
Residues (chain): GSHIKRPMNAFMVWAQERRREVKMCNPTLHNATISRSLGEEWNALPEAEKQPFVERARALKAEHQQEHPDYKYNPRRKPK
CATAATC: -0.139 ln ratio
CCCGGTT: 0.811 ln ratio
ACTAGTT: -0.647 ln ratio
CATGTTC: 1.1 ln ratio
GACTGTT: -0.326 ln ratio
GACCGTT: 0.707 ln ratio
CATATCC: 0.671 ln ratio
CATCCGT: 1.01 ln ratio
ATCGGTT: 0.408 ln ratio
ACGAGTT: 0.3 ln ratio
CCAGGTT: 0.92 ln ratio
TAAGGTT: 0.765 ln ratio
CATGCCA: 1.09 ln ratio
ACCCGTT: 0.256 ln ratio
CGATGTT: 0.151 ln ratio
CATCCTT: 0.426 ln ratio
CATGAGC: 1.09 ln ratio

Study 3
Target: Prothrombin, mature alpha-thrombin (F2, Homo sapiens, UniProt P00734)
Method: aptamer microarray, sandwich
Form: DNA with 2'F-ANA
Sample: in vitro
Concentration: 200 nM
Notes: whole 15-mer aptamer, many near background
With: Cy3 exosite-II aptamer, 400 nM
Reading: higher = stronger binding
Measurement: mean fluorescence intensity
Strand: GGTTGGTGTGGTTGG
2'F-ANA at 1 2 4 6 7 10 11: 61.1 a.u.
2'F-ANA at 1 2 3 6 8 9 10 12 13 14 15: 54.5 a.u.
2'F-ANA at 2 4 6 8 9 15: 298 a.u.
2'F-ANA at 1 7 8 9 11 12 15: 373 a.u.
2'F-ANA at 1 5 6 7 12 15: 103 a.u.
2'F-ANA at 1 2 3 4 7 12: 425 a.u.
2'F-ANA at 2 5 7 8 9 12 13 14: 46.1 a.u.
2'F-ANA at 1 3 6 7 8: 390 a.u.
2'F-ANA at 1 5 9 10 13 14: 57.9 a.u.
2'F-ANA at 1 3 8 9 10 11 12 15: 107 a.u.
2'F-ANA at 1 4 6 9: 163 a.u.
2'F-ANA at 1 2 3 5 8 12 14 15: 50.2 a.u.
2'F-ANA at 1 7 8: 272 a.u.
2'F-ANA at 4 5 7 9: 75.4 a.u.
2'F-ANA at 1 2 6 7 8 9 14: 64.6 a.u.
2'F-ANA at 2 6 7 8 11: 394 a.u.
2'F-ANA at 1 2 3 4 6 7 11 12 13: 171 a.u.
2'F-ANA at 2 3 4 5 6 9 10 13 15: 41.8 a.u.
2'F-ANA at 3 4 5 6 8 14 15: 51.1 a.u.
2'F-ANA at 4 5 7 10 11 13 14 15: 69.5 a.u.
2'F-ANA at 3 4 5 6 7 8 9 11 12 13 14 15: 57.5 a.u.
2'F-ANA at 4 5 6 7 8 9 10 11 12: 55.1 a.u.
2'F-ANA at 3 4 5 6 7 8 9 10 11 14: 44.4 a.u.
2'F-ANA at 1 3 5 6 7 9 11 12 14 15: 47.2 a.u.

Study 4
Target: Sal-like protein 4, full length isoform B (SALL4, Homo sapiens, UniProt Q9UJQ4-2, residues 1-616)
Method: universal PBM
Form: double-stranded DNA, one strand shown
Sample: in vitro
Concentration: not given
Notes: 8-mer, flanks averaged, mean of replicates
Reading: higher = stronger binding
Measurement: E-score
GAGTACTA: 0.16
AAGCGCAT: -0.0183
CGATCAAC: -0.0857
ATGCGTAA: 0.251
GAATTCCC: -0.131
AGAGAAGG: -0.142
ATAGTCCG: 0.0909
GTAACGAC: -0.211
ACCACCAC: 0.0411
GATAGTAA: 0.197
GGGAAGAC: -0.173
AAGGAGAA: 0.115
CTCGCGGA: -0.228
CTATGGTA: 0.0421
ATCCGACA: -0.0155
AAACGGCA: -0.0197
GCATAGGC: 0.00894
CAGTGTGA: -0.00139

Study 5
Target: Histone acetyltransferase KAT6A, both winged helices, GST fusion (KAT6A, Homo sapiens, UniProt Q92794, residues 1-181)
Method: protein binding microarray
Form: double-stranded DNA, one strand shown
Sample: in vitro
Concentration: not given
Notes: 8-mer, flanks averaged, mean of 2 arrays, mostly near background
Relative to: not given
Reading: higher = stronger binding
Measurement: E-score
Construct (chain): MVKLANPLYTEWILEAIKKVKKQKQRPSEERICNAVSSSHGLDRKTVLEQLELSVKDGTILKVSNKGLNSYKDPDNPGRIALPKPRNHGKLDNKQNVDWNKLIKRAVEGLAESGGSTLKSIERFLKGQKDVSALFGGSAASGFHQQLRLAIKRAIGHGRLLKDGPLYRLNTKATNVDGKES
GAAACGTA: 0.0818
GTCGAATA: -0.073
AGTCTCAA: -0.0989
TGAGTTAA: -0.034
CCGAACAA: 0.0916
AGACATCC: -0.0692
ATAGTGGG: -0.274
CAAGCTCG: -0.132
GTATAGAA: -0.0901
CCCTTCTA: -0.12
GCGATACC: 0.205
ACATTTTG: -0.15
CCGCCACC: 0.103
ACAAGTTA: 0.0593
ATCAGGAA: -0.139
CGCGCATA: 0.303
AACCTACG: -0.0742
CCGGGCTA: 0.164

A few entries again (study 2):
CCCGGTT: 0.811 ln ratio
ACTAGTT: -0.647 ln ratio
CATGTTC: 1.1 ln ratio
GACTGTT: -0.326 ln ratio
GACCGTT: 0.707 ln ratio
CATATCC: 0.671 ln ratio
CATCCGT: 1.01 ln ratio
ATCGGTT: 0.408 ln ratio
